Assay results from different studies.
Every numbered part comes from another study and shows a few of its results, in no order. Numbers after ± are the reported error.
Chain of UniProt P10721 (whole entry, unmodified, looked up): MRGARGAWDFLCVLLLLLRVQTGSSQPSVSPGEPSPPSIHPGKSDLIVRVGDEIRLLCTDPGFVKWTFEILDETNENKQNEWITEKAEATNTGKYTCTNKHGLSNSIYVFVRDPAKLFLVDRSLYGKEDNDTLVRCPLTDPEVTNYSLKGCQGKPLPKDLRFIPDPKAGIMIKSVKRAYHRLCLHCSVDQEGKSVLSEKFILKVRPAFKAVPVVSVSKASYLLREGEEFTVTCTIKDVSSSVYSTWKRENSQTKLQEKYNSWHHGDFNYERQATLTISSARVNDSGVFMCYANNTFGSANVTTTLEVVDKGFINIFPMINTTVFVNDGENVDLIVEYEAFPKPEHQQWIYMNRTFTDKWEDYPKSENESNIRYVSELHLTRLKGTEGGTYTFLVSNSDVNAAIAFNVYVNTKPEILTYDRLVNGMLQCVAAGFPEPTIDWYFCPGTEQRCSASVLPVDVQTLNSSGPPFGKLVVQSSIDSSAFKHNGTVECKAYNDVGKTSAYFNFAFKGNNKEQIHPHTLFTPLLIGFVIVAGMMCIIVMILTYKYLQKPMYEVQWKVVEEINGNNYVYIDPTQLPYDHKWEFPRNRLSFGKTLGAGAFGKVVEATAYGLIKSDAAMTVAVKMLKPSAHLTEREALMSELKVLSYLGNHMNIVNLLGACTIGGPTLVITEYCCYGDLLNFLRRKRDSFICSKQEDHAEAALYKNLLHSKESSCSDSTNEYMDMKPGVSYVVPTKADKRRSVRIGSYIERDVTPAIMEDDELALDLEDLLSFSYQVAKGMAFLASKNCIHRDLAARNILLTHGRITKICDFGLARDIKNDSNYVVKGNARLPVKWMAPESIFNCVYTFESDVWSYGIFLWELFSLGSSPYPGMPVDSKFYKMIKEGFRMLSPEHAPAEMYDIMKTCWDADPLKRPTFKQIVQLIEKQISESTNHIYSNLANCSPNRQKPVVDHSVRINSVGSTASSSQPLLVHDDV
Chain of UniProt Q13976 (whole entry, looked up): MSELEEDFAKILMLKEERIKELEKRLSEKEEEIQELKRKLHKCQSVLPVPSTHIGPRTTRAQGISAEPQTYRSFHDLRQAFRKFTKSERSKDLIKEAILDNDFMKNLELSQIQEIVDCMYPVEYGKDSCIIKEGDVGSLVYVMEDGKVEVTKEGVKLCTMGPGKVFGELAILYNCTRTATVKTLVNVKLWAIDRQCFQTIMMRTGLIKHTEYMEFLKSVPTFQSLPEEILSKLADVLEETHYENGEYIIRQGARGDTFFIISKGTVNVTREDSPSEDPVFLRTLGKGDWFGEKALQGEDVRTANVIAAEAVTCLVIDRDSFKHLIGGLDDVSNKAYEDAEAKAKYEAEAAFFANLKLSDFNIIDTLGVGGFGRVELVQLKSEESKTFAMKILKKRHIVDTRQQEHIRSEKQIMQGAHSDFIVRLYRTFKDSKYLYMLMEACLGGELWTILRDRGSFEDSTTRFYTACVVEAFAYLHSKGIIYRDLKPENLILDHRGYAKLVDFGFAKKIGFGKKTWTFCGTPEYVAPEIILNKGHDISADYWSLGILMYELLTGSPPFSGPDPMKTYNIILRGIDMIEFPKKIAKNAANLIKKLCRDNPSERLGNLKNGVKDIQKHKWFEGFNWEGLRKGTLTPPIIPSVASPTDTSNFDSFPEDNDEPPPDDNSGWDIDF
Chain of UniProt Q16584 (whole entry, looked up): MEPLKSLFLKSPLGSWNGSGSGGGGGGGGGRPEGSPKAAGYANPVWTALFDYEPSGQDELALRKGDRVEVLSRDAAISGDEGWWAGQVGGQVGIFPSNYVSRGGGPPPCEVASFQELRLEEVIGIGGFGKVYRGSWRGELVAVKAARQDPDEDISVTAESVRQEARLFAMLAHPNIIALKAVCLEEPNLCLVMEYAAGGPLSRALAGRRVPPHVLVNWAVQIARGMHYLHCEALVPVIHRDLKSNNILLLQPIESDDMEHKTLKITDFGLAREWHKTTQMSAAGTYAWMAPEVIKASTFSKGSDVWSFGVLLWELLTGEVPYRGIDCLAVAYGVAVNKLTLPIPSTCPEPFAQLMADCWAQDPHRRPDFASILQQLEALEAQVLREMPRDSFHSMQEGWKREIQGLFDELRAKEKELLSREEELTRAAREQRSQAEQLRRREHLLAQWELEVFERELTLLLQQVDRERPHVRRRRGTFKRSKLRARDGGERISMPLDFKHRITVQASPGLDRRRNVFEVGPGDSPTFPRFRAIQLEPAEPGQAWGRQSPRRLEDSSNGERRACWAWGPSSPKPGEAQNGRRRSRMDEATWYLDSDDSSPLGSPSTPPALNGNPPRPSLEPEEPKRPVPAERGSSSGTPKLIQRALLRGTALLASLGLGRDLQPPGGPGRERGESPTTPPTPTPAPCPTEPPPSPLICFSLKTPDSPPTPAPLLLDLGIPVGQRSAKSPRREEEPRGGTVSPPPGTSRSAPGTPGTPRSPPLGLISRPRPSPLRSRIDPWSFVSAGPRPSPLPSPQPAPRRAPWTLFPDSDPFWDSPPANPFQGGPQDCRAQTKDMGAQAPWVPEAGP
Chain of UniProt P53778 (whole entry, looked up): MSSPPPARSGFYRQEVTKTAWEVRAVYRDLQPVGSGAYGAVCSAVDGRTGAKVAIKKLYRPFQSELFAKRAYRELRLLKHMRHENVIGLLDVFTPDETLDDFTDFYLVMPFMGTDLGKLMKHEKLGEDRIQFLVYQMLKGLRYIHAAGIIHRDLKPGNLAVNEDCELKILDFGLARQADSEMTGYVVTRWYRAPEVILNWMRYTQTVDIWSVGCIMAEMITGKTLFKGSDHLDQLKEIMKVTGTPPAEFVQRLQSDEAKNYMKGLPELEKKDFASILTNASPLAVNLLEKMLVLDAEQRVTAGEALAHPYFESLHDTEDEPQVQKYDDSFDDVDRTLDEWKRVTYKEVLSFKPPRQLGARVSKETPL
Chain of UniProt Q9Y4K4 (whole entry, looked up): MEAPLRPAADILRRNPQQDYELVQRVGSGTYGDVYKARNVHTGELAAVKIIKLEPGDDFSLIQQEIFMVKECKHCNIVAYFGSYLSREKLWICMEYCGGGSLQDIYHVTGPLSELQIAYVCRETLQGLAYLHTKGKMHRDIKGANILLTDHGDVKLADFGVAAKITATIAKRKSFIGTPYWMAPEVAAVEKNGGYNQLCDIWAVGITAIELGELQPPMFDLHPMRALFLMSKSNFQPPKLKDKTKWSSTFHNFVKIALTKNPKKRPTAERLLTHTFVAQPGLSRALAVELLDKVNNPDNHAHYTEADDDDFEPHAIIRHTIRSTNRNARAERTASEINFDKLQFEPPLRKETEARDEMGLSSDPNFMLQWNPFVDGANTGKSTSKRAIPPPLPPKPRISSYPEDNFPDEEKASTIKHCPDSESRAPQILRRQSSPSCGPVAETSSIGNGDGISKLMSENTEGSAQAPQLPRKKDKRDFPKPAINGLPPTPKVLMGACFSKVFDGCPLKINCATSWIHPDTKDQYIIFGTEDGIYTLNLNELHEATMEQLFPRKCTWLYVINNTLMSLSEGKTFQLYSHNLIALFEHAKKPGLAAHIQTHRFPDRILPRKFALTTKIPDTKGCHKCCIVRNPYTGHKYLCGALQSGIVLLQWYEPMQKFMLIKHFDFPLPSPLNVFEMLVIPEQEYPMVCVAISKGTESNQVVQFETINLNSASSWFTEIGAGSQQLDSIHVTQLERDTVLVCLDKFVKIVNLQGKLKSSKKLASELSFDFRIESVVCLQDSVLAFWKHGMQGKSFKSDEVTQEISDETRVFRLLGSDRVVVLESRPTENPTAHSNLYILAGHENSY
Chain of UniProt P52564 (whole entry, looked up): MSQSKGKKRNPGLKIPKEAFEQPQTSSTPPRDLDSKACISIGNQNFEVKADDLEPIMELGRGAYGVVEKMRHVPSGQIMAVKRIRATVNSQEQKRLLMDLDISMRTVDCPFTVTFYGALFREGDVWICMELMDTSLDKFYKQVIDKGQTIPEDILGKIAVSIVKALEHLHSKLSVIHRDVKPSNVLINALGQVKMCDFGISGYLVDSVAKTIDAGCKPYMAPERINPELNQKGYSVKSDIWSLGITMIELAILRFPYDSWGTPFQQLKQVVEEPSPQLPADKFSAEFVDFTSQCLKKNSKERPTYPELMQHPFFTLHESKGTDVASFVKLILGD

Sample 1 — Compound: C=CCc1ccc(O)c(-c2ccc(O)c(CC=C)c2)c1
ANO1 del476-501: Anoctamin-1 (ANO1, Homo sapiens, UniProt Q5XXA6, del476-501)
Chain of UniProt Q5XXA6 (whole entry, unmodified, looked up): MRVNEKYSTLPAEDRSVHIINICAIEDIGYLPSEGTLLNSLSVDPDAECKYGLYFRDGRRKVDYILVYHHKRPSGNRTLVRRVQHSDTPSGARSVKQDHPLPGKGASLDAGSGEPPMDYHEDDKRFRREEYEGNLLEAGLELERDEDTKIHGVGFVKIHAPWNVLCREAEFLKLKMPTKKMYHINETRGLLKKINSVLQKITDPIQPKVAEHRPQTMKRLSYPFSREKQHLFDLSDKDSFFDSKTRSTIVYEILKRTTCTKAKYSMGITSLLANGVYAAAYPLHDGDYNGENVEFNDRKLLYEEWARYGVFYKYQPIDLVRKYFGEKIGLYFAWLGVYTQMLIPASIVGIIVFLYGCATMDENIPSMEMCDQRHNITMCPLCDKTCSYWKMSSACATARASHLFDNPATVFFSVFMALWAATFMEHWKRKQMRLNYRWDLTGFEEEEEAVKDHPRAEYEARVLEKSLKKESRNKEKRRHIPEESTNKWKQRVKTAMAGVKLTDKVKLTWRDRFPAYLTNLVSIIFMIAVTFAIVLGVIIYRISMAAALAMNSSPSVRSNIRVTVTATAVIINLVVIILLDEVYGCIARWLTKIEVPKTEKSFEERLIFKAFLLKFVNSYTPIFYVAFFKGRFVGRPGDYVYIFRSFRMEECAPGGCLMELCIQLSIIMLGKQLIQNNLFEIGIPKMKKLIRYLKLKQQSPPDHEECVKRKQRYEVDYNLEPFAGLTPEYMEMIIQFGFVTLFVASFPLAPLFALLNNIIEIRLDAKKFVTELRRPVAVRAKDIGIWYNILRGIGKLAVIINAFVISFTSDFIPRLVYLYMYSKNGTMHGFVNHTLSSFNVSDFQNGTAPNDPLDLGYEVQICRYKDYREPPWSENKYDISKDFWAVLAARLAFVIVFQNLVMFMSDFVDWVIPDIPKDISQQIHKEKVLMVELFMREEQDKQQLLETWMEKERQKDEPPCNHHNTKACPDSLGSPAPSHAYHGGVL
ANO1 del476-501/E659A/K629A: Anoctamin-1 (ANO1, Homo sapiens, UniProt Q5XXA6, del476-501/E659A/K629A)
ANO1 del476-501/F628A: Anoctamin-1 (ANO1, Homo sapiens, UniProt Q5XXA6, del476-501/F628A)
| target | test | conditions | how to read | normalized current |
| --- | --- | --- | --- | --- |
| Anoctamin-1 (ANO1, Homo sapiens, UniProt Q5XXA6, del476-501/E649A/R541A) | chloride current, inside-out patch clamp | 10 µM, membrane voltage -60 mV |  | -0.259 |
| ANO1 del476-501 | chloride current, whole-cell voltage clamp | 30 µM, wild type, concentration-response at 40 mV, together with: 4 µM Ca2+ |  | 0.0253 |
| Anoctamin-1 (ANO1, Homo sapiens, UniProt Q5XXA6, del476-501/F803A) | chloride current, inhibitor, whole-cell voltage clamp | 1 µM | baseline: untreated | 0.907 |
| Anoctamin-1 (ANO1, Homo sapiens, UniProt Q5XXA6, del476-501/E649A) | ion current, inside-out patch clamp | 10 µM, E623A mutant at -60 mV |  | -0.427 |
| ANO1 del476-501/E659A/K629A | chloride current, inside-out patch clamp | 10 µM, membrane voltage -20 mV |  | -0.177 |
| ANO1 del476-501/F628A | chloride current, whole-cell voltage clamp | 100 µM, concentration-response at -100 mV, together with: 4 µM Ca2+ |  | -0.132 |
| ANO1 del476-501 | chloride current, whole-cell voltage clamp | 3 µM, wild type, concentration-response at 60 mV, together with: 4 µM Ca2+ |  | 0.451 |
| ANO1 del476-501/F628A | chloride current, whole-cell voltage clamp | 30 µM, I-V at 60 mV, together with: 4 µM Ca2+ |  | 0.272 |
| ANO1 del476-501/E659A/K629A | chloride current, inside-out patch clamp | 10 µM, membrane voltage 100 mV |  | 0.823 |
| ANO1 del476-501/F628A | chloride current, whole-cell voltage clamp | 100 µM, concentration-response at 80 mV, together with: 4 µM Ca2+ |  | 0.124 |
| Anoctamin-1 (ANO1, Homo sapiens, UniProt Q5XXA6, del476-501/R541A) | chloride current, inside-out patch clamp | 10 µM, membrane voltage 20 mV |  | 0.118 |
| ANO1 del476-501/F628A | chloride current, whole-cell voltage clamp | 30 µM, I-V at -100 mV, together with: 4 µM Ca2+ |  | -0.458 |

Sample 2 — effect on: cell-free assay; technique: competition with immobilised ligand; tested at: 1 µM
Structure (SMILES): O=C(NC[C@@H]1[C@H]2CN(C(=O)OCc3cc(C(F)(F)F)cc(C(F)(F)F)c3)C[C@@H]12)c1ccc2[nH]nnc2c1
| target | remaining binding [%] |
| --- | --- |
| Serine/threonine-protein kinase DCLK3 (DCLK3, Homo sapiens, UniProt Q9C098) | 100 |
| Mitogen-activated protein kinase kinase kinase 11 (MAP3K11, Homo sapiens, UniProt Q16584) | 99 |
| Tyrosine-protein kinase ABL1, non-phosphorylated (ABL1, Homo sapiens, UniProt P00519) | 87 |
| Mast/stem cell growth factor receptor Kit (KIT, Homo sapiens, UniProt P10721, A829P) | 100 |
| TRAF2 and NCK-interacting protein kinase (TNIK, Homo sapiens, UniProt Q9UKE5) | 98 |
| Tyrosine-protein kinase Yes (YES1, Homo sapiens, UniProt P07947) | 100 |
| Hepatocyte growth factor receptor (MET, Homo sapiens, UniProt P08581) | 100 |
| Dual specificity mitogen-activated protein kinase kinase 2 (MAP2K2, Homo sapiens, UniProt P36507) | 84 |
| Mitogen-activated protein kinase kinase kinase kinase 5 (MAP4K5, Homo sapiens, UniProt Q9Y4K4) | 97 |
| Serine/threonine-protein kinase 38 (STK38, Homo sapiens, UniProt Q15208) | 75 |
| Rho-associated protein kinase 1 (ROCK1, Homo sapiens, UniProt Q13464) | 85 |
| Ephrin type-A receptor 5 (EPHA5, Homo sapiens, UniProt P54756) | 100 |
| Mitogen-activated protein kinase kinase kinase 14 (MAP3K14, Homo sapiens, UniProt Q99558) | 77 |
| Serine/threonine-protein kinase TAO1 (TAOK1, Homo sapiens, UniProt Q7L7X3) | 78 |
| RAC-alpha serine/threonine-protein kinase (AKT1, Homo sapiens, UniProt P31749) | 100 |
| 1-phosphatidylinositol 3-phosphate 5-kinase (PIKFYVE, Homo sapiens, UniProt Q9Y2I7) | 100 |
| Serine/threonine-protein kinase LATS2 (LATS2, Homo sapiens, UniProt Q9NRM7) | 86 |
| Cyclin-dependent kinase-like 5 (CDKL5, Homo sapiens, UniProt O76039) | 100 |
| Ribosomal protein S6 kinase alpha-4, C-terminal kinase domain (RPS6KA4, Homo sapiens, UniProt O75676) | 86 |
| Phosphatidylinositol 4,5-bisphosphate 3-kinase catalytic subunit alpha isoform (PIK3CA, Homo sapiens, UniProt P42336, H1047Y) | 62 |
| Tyrosine-protein kinase ABL1, phosphorylated (ABL1, Homo sapiens, UniProt P00519, Q252H) | 100 |

Sample 3 — SMILES: COc1ccc(COc2ccc(Cc3cnc(N)nc3N)cc2OC)cc1; effect on: enzyme activity; action: inhibitor; tested at: 0.5 µM; baseline: control
| target | remaining activity [%] |
| --- | --- |
| cGMP-dependent protein kinase 1 (PRKG1, Homo sapiens, UniProt Q13976) | 98.3 |
| Mitogen-activated protein kinase kinase kinase 10 (MAP3K10, Homo sapiens, UniProt Q02779) | 96.4 |
| Leucine-rich repeat serine/threonine-protein kinase 2 (LRRK2, Homo sapiens, UniProt Q5S007) | 92.6 |
| Serine/threonine-protein kinase Chk1 (CHEK1, Homo sapiens, UniProt O14757) | 107 |
| Serine/threonine-protein kinase PLK2 (PLK2, Homo sapiens, UniProt Q9NYY3) | 116 |
| Dual specificity mitogen-activated protein kinase kinase 6 (MAP2K6, Homo sapiens, UniProt P52564) | 87.4 |
| Mitogen-activated protein kinase 12 (MAPK12, Homo sapiens, UniProt P53778) | 102 |
| Cyclin-dependent kinase 9, with cyclin T1 (CDK9, Homo sapiens, UniProt P50750) | 92.5 |
| Casein kinase II subunit alpha (CSNK2A1, Homo sapiens, UniProt P68400) | 105 |
| Protein kinase C iota type (PRKCI, Homo sapiens, UniProt P41743) | 91.6 |
| Mitogen-activated protein kinase 13 (MAPK13, Homo sapiens, UniProt O15264) | 96 |
| Casein kinase I isoform alpha (CSNK1A1, Homo sapiens, UniProt P48729) | 97.9 |
| Mast/stem cell growth factor receptor Kit (KIT, Homo sapiens, UniProt P10721) | 106 |
| Mitogen-activated protein kinase kinase kinase kinase 2 (MAP4K2, Homo sapiens, UniProt Q12851) | 120 |
| Protein kinase C delta type (PRKCD, Homo sapiens, UniProt Q05655) | 87.8 |
| RAC-gamma serine/threonine-protein kinase (AKT3, Homo sapiens, UniProt Q9Y243) | 96.5 |
| Serine/threonine-protein kinase Nek4 (NEK4, Homo sapiens, UniProt P51957) | 92.2 |
| Serine/threonine-protein kinase WNK2 (WNK2, Homo sapiens, UniProt Q9Y3S1) | 94.6 |

Sample 4 — effect on: kinase activity
Compound: COc1cc(C(=O)N2CCC(N3CCN(C)CC3)CC2)ccc1Nc1ncc2c(n1)N(C)c1ccccc1C(=O)N2C
| target | conditions | remaining activity [%] |
| --- | --- | --- |
| SGK1 | 10 µM | 89 ± 2 |
| PKD1 | 10 µM | 40 ± 20 |
| SRPK1 | 1 µM | 98 ± 9 |
| SmMLCK | 1 µM | 76 ± 8 |
| MARK3 | 1 µM | 100 ± 12 |
| NEK6 | 10 µM | 110 ± 10 |
| IKKe | 1 µM | 76 ± 2 |
| MST2 | 10 µM | 98 ± 13 |
| YES1 | 10 µM | 82 ± 9 |
| ROCK2 | 1 µM | 84 ± 1 |

Some of these lines once more (sample 3):
| target | remaining activity [%] |
| --- | --- |
| Protein kinase C iota type (PRKCI, Homo sapiens, UniProt P41743) | 91.6 |
| Serine/threonine-protein kinase Nek4 (NEK4, Homo sapiens, UniProt P51957) | 92.2 |
| Leucine-rich repeat serine/threonine-protein kinase 2 (LRRK2, Homo sapiens, UniProt Q5S007) | 92.6 |
| Casein kinase II subunit alpha (CSNK2A1, Homo sapiens, UniProt P68400) | 105 |
